Measured values from different studies.
Every numbered part comes from another study and shows a few of its results, in no order. Substitutions count along the parent as printed.
Chain of UniProt Q9NR09 (whole entry, looked up): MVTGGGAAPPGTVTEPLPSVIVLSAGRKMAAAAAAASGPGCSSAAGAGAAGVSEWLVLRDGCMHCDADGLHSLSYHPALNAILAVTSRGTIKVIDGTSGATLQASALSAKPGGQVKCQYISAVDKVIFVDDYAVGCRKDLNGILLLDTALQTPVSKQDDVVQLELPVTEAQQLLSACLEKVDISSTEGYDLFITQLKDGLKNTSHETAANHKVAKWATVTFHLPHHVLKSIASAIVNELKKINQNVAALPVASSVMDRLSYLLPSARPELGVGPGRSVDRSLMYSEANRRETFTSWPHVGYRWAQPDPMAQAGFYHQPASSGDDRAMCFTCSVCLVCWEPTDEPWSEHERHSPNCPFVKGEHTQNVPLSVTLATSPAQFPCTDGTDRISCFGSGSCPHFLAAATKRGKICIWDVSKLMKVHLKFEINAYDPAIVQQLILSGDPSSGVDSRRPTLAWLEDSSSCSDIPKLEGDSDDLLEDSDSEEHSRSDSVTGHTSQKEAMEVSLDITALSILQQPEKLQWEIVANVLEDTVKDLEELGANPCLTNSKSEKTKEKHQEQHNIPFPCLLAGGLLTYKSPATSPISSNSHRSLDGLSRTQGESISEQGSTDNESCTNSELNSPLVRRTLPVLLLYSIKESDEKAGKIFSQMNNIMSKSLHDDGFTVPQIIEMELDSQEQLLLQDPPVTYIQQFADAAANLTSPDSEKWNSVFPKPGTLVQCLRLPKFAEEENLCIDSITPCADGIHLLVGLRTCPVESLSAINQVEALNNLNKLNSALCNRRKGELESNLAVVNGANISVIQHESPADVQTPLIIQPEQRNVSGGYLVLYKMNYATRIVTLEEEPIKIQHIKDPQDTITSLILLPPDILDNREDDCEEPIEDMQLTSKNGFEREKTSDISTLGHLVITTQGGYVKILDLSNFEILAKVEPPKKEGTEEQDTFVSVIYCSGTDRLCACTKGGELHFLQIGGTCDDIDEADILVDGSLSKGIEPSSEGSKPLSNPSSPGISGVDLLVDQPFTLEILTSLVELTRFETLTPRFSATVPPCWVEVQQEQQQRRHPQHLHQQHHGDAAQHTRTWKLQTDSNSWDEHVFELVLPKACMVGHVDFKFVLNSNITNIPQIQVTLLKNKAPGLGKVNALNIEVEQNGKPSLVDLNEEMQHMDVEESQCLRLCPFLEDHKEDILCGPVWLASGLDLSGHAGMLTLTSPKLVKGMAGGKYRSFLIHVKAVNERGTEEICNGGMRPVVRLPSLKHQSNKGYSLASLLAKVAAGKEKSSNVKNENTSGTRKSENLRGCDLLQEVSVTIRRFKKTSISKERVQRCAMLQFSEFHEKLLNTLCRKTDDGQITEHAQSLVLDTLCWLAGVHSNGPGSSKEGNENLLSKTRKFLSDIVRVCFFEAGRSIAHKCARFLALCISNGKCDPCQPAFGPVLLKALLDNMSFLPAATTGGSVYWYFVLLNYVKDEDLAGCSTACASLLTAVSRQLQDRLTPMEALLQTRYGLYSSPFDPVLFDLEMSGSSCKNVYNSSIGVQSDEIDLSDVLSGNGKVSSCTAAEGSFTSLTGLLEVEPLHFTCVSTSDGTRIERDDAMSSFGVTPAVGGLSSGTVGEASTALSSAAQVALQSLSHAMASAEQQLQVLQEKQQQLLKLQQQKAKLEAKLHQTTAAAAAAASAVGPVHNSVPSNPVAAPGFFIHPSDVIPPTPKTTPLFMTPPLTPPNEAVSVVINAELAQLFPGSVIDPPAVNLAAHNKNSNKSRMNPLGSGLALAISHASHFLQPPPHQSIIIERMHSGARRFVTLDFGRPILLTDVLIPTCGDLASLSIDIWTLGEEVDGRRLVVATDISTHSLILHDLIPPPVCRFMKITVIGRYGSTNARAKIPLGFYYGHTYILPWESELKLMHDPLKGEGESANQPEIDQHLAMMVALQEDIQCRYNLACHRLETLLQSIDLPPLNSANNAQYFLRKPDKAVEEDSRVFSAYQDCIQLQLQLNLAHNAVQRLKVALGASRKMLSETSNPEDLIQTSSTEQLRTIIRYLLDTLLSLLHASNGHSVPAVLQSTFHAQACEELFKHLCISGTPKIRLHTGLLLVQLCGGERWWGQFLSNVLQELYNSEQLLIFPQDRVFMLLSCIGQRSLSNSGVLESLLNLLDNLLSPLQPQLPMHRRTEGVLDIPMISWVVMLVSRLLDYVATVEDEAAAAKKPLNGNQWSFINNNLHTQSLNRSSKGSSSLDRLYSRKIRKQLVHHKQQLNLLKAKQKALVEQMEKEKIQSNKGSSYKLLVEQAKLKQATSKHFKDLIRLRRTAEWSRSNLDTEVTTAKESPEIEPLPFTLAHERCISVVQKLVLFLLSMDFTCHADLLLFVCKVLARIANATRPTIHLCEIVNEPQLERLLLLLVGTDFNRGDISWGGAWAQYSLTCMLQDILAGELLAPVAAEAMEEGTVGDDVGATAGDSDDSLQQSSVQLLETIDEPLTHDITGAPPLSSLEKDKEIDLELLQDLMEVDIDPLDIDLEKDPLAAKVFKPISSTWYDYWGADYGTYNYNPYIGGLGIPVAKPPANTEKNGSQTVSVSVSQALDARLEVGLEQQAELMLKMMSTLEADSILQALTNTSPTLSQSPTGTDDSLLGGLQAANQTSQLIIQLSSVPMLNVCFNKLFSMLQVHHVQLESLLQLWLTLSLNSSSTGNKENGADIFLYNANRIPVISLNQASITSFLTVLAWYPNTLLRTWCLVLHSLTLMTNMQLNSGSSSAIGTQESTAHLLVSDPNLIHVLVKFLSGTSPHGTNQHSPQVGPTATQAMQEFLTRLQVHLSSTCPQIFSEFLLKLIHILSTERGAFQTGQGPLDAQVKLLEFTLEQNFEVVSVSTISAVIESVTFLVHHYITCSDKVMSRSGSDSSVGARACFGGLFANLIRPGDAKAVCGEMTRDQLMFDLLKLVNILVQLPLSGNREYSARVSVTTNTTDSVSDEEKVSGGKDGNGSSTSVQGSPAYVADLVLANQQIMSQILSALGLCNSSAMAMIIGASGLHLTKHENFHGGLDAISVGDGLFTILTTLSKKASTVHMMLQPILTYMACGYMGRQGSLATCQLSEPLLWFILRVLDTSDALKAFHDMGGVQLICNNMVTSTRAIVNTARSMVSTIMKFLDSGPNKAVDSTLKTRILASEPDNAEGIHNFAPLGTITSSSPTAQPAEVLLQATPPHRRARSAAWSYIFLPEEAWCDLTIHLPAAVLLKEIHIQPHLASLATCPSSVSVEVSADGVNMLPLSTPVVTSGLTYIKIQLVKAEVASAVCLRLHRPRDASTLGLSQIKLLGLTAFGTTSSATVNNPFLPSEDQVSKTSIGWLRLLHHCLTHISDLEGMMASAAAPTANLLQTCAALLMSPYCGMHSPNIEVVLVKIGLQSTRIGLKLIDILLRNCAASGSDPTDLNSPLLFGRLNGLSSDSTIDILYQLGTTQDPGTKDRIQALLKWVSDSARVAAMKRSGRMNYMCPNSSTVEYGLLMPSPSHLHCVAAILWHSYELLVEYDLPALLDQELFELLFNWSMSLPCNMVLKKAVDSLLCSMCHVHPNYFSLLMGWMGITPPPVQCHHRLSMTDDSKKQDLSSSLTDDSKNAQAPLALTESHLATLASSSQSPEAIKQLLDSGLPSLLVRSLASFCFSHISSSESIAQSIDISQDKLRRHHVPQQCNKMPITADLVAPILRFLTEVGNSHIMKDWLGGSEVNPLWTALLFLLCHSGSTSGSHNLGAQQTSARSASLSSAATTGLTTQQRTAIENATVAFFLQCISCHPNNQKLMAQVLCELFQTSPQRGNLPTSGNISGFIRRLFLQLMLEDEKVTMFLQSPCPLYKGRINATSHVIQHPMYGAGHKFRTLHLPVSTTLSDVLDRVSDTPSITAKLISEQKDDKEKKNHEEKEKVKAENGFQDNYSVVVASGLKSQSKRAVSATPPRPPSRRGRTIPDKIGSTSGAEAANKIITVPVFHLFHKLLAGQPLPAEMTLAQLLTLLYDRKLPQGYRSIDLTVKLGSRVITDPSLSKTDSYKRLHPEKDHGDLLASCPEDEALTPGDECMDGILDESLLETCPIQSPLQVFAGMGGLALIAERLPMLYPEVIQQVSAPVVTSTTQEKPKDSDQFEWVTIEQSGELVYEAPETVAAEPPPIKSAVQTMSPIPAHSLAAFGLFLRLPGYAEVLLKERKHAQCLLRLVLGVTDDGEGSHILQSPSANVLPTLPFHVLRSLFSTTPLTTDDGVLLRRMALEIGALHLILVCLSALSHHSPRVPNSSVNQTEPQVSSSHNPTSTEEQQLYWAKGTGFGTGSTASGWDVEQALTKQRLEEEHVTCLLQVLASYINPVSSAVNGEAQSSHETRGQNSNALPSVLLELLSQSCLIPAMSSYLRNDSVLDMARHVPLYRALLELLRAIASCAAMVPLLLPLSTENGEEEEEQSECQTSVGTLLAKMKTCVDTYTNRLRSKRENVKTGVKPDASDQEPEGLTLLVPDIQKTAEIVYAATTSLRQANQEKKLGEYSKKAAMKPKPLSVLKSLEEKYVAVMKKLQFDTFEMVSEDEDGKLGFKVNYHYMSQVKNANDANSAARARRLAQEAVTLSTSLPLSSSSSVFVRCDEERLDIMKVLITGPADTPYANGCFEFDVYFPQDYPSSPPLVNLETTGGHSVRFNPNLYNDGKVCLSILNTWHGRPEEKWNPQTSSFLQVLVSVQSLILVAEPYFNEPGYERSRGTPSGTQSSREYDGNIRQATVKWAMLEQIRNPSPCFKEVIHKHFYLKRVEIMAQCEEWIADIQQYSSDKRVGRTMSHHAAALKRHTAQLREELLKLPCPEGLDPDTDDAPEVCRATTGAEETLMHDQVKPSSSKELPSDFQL

Sample 1 — target: CREB3L2, bZIP domain (human); method: DHFR protein complementation; medium: yeast; baseline: wild-type JUN-FOS pair; direction: higher = stronger binding
Setting: single substitutions, most at no-binding floor
Starting sequence: JUN, bZIP domain (human); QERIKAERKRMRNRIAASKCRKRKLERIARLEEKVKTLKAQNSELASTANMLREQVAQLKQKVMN; partner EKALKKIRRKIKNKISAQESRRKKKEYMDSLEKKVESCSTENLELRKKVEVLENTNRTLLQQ
Substitution	binding fitness [natural log]
N42E	-1.44
S47I	-1.53
E54V	-1.38
A40Y	-1.45
T37K	-1.43
E32M	-1.49
L45I	-1.51
A29Y	-1.58
A29W	-1.55
R30V	-1.35
L52H	-1.39
A46S	-1.53
V56Y	-1.46
L31K	-1.46
R53A	-1.39
E32N	-1.39
L38H	-1.51
L52K	-1.5
R53Q	-1.18
L45K	-1.44
M51P	-1.54
Q41M	-1.4
E44F	-1.45
Q41L	-1.34
K39Y	-1.47

Sample 2 — method: DHFR PCA, deep sequencing; medium: yeast; with: (+)-ABA 2500 µM; baseline: wild-type fitted maximum; direction: higher = stronger binding
Target: ABI1, truncated, D143A, DHFR fusion (Arabidopsis thaliana)
Setting: methotrexate growth selection, single substitutions
Starting sequence: PYL1, truncated, DHFR fusion (Arabidopsis thaliana); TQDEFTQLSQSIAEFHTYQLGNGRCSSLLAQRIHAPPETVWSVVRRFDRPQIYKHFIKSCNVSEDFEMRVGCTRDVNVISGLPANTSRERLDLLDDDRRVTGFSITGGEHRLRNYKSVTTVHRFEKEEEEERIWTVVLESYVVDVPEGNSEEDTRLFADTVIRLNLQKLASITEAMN; partner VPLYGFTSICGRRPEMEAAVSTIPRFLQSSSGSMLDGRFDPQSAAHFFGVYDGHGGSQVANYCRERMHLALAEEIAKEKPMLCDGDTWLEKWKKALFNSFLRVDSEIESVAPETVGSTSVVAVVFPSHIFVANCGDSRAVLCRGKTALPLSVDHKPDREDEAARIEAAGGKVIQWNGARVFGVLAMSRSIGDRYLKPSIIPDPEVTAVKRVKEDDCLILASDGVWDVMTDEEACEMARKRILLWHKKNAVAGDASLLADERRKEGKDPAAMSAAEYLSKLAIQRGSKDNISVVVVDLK
Substitution	relative binding score
L20P	94.5%
I133S	104%
E128N	106%
W41Q	-3.18%
C72I	93.4%
E139V	94%
N77F	96.1%
L94K	72.5%
D48E	99.7%
K116T	94.9%
I52T	96.4%
M176Y	94.4%
R163N	90.7%
S104G	79.8%
T6A	105%
I133N	108%
T173R	54.7%
E127Q	105%
R123N	108%
L8F	114%
N22D	103%
R24W	86.2%

Sample 3 — method: yeast two-hybrid; medium: yeast; setting: mostly zero background; baseline: not given; direction: higher = stronger interaction
Molecule: KPDKMEETLTCIICQDLLHDCVSLQPCMHTFCAACYSGWMERSSLCPTCRCPVERICKNH (CHFR RING domain (UniProt Q96EP1))
target	lacZ reporter activity
UBE2M UBC core domain (UniProt P61081)	0
UBE2I UBC core domain (UniProt P63279)	0
BIRC6 UBC core domain (UniProt Q9NR09)	0
UBE2C UBC core domain (UniProt O00762)	0
UBE2T UBC core domain (UniProt Q9NPD8)	0
UBE2D4 UBC core domain (UniProt Q9Y2X8)	8460
UBE2B UBC core domain (UniProt P63146)	0
UBE2D2 UBC core domain (UniProt P62837)	10400
UBE2G1 UBC core domain (UniProt P62253)	0
UBE2O UBC core domain (UniProt Q9C0C9)	0
UBE2L3 UBC core domain (UniProt P68036)	0
UBE2E3 UBC core domain (UniProt Q969T4)	0
UBE2J1 UBC core domain (UniProt Q9Y385)	0
UBE2D1 UBC core domain (UniProt P51668)	9840
UBE2Q1 UBC core domain (UniProt Q7Z7E8)	0
UBE2J2 UBC core domain (UniProt Q8N2K1)	0
UBE2Z UBC core domain (UniProt Q9H832)	0

Sample 4 — method: protein binding microarray; molecule type: double-stranded DNA, one strand shown; medium: in vitro; tested at: not given; baseline: not given; direction: higher = stronger binding
Target: Histone acetyltransferase KAT6A, winged helix 1, GST fusion (KAT6A, Homo sapiens, UniProt Q92794, residues 1-85)
Setting: 8-mer, flanks averaged, mean of 2 arrays, mostly near background
Residues (chain): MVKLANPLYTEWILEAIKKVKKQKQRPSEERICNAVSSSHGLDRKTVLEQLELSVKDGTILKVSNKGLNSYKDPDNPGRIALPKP
Strand	E-score
CAGAAAAC	-0.101
CACGCGGC	0.377
CCACAGAA	-0.188
CATCGCAC	0.0365
TTGAGAAA	-0.225
GTGGACTA	-0.11
ACCTCGAC	-0.155
AACCTAAT	0.0697
ACGGATGA	0.0512
CAACAGTA	-0.246
GATTATAA	-0.0185
GACACGGA	0.221
ATCAGATC	-0.0447
GCCTCAAC	-0.193
CGATGTCC	0.181
GAGATACC	0.0208
ACGGCCTA	0.295
AAAGGTAG	-0.00162
CTCAGGAG	-0.0564
TGACGCCA	0.0219
AGTAACTG	-0.145

Sample 5 — method: RNA Bind-n-Seq; molecule type: RNA; medium: in vitro; tested at: 100 nM; baseline: input RNA pool; direction: higher = stronger binding
Target: RING finger protein unkempt homolog, zinc fingers 1-6, SBP tag (UNK, Homo sapiens, UniProt Q9C0B0, residues 30-357)
Chain of UniProt Q9C0B0 (30-357, looked up): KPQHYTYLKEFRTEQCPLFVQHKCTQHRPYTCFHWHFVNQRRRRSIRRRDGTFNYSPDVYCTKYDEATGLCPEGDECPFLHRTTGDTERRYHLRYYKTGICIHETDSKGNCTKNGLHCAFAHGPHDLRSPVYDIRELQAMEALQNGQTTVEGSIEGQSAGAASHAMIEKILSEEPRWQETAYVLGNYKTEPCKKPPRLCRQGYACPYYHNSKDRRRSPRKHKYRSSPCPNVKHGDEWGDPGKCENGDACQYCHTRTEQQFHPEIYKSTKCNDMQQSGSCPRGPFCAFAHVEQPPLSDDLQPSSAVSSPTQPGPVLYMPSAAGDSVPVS
Setting: RNA with constant flanks, vertebrate orthologous sites, ends assumed
Constant ends, left off below: GGGAGUUCUACAGUCCGACGAUC … CAACAGAGGAUUGAGCAUCA
Strand	bound/input enrichment
CAUUAACACAUGAAAUGUCUCCAGGGGGGUAUUAGAUUUGAUUUCUUACAUAUAAAACAAACCAACCAACCAUUUUUAAAGUAGAAGAGGGUUUUAGAUAGUGAAUAAAAUAUUCUUUUU	1.53 ratio
CAAUCUUAUAUUAAACUGGUAUUUUCAAACAAUAGGAAACUUUUUUUUUUUUUUACAGUUUAGUGUAUCUGGUUUCUACAUGGAAGACUAAACUCAUGCUUAUUGCUAAAUGUGGUCUUU	0.409 ratio
UGUGAGCAGUGGAGACUGGCCUGCAACAAGGAGCAAGUCAAGAAAUGUCCAGUAAAACUGCUGUCCUCUGCACUAUCGUUAACCUGCUGUCUCGCUUUUCAUGUAGAUGUAAAUUACUGA	0.323 ratio
AAGAAAUGCUGGCUGCCAACCCUCAGGAUCGUCCAGAUGCUUUUGAACUAGAACUCCGAUUAGUACAAAUUGCGUUUAAAGAUAGCAGCUGGGAAACGUGACACAUAUAUUGUUUGCAAA	2.54 ratio
GAAAUGGUGGUUGUACAUUAUUUCGUUUAGAAAAUAUAAAAAUUAAUUUUGCUUUGAAGUUAGGUGUUAAAUUGGAAUAGCUAUUAUACCCCAGAGAAUGGGGCAGUUGUGCCCUUUCCU	2.49 ratio
ACCCUCAACUAGCUUUGAACAAUGGUACUAUUGAGCUGGUUCAUAAGUUGGGAUUGAGAAUUCAGGUCUUUGAUUUCUCUACUGCUGCUGACUGGAGAGACAAAUUUAUAACCAGGAACA	0.534 ratio
GCUUUGGACCUUGGAGCCGAACCAGGGAGUGAGCAAAAAUAAAGCAGACUUGUAAAAUUAUAGCCACAUGCAGCUGCAUAACAAUAGCACUACCACUAGCAGCUGUGUUAAGAUAUUUAU	0.518 ratio
ACCCCCCACUCCCUGUGAGAGGGAAUGGGGGAAGCCUGAUGACCCUCAGCUGUUCCAAUCUAGUAUUUUUUUUUCUUUUUUAAAAUUACUGUAUUUAUUAUGACGAUGGUGACUCCCCAG	1.94 ratio
AGACUUAUAUUGUGGCAUAUAGUCAACAUGGAAGUAGACCAGCUCUGCCGAUUUGAAAUUUAGAUUUUUUUAAAAUUAUGUACUGGGGACAGGUCUUUGUCGCUUUACAUUGCUUCCUAG	3.56 ratio
UCUGUAGAGAACAAUUUUCACUGAAGCCAUUGGCAAAUUCCCCCCCCCACCAGACUUUUCUUUGGAGCUCUUUAAUUUCAUACAAUCUUGCUGUGUCGGUCAUUGUUAGCCCUGAAUCCA	1.09 ratio
GAGGUUUACUUCUUCCAACUUCAGUUUUUCAGGUUGUAGCUGAUUUUCUUUUUUUUGUUUUUCCCUUUCCGCUGUUCUUUUGCUUUCCCUUCUGUCUCCCCAACUUAAAAUACACAAGCU	1.62 ratio

Sample 6 — target: CCNE2, cyclin fold, Cln2 fusion (human); method: yeast growth competition, sequencing; medium: yeast; setting: strong parent motif; baseline: not given; direction: higher = stronger binding
Starting sequence: INSM1 docking peptide (human); PKAIRKLHFEDEV; partner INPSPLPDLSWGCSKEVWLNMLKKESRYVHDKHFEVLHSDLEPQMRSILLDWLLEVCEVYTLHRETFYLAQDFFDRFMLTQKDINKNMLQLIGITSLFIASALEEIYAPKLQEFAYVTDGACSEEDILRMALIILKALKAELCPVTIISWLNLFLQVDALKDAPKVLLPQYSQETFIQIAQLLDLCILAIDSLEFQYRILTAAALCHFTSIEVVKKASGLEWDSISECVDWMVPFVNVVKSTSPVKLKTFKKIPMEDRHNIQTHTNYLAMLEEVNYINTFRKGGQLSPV
Substitution	normalised enrichment score
PKAIRKLNFEDEV [H8N]	2.17
PSAIRKLHFEDEV [K2S]	2.11
PKAIRKLEFEDEV [H8E]	1.32
PDAIRKLHFEDEV [K2D]	0.759
PKAIRKLHFEDFV [E12F]	2.15
PKAIRKLLFEDEV [H8L]	1.79
PKAIRKNHFEDEV [L7N]	-0.218
PKAIRKLHFEDHV [E12H]	2.02
PKAIEKLHFEDEV [R5E]	-0.129
PKAWRKLHFEDEV [I4W]	0.256
PMAIRKLHFEDEV [K2M]	1.1
PKAKRKLHFEDEV [I4K]	2.79
PKALRKLHFEDEV [I4L]	0.437
PKAIRKLHFNDEV [E10N]	1.79
PKAIRKLMFEDEV [H8M]	1.3
PKVIRKLHFEDEV [A3V]	2.19
PKAIRKLHFEDGV [E12G]	1.77
PKAIRKLPFEDEV [H8P]	0.687
PKAIRKLHFEEEV [D11E]	1.62
PKAIRFLHFEDEV [K6F]	0.723
PKAIRKLHFEDWV [E12W]	1.89
PKAIRKPHFEDEV [L7P]	0.026
PKAIRCLHFEDEV [K6C]	0.554
PGAIRKLHFEDEV [K2G]	1.91

Some of these lines once more (sample 6):
Substitution	normalised enrichment score
PKAIRKLHFEDFV [E12F]	2.15
PKAIRKLLFEDEV [H8L]	1.79
PKAIRKNHFEDEV [L7N]	-0.218
PKAIRKLHFEDHV [E12H]	2.02
PKAIEKLHFEDEV [R5E]	-0.129
PKAWRKLHFEDEV [I4W]	0.256
PMAIRKLHFEDEV [K2M]	1.1
PKAKRKLHFEDEV [I4K]	2.79
PKALRKLHFEDEV [I4L]	0.437
PKAIRKLHFNDEV [E10N]	1.79
PKAIRKLMFEDEV [H8M]	1.3
PKVIRKLHFEDEV [A3V]	2.19
PKAIRKLHFEDGV [E12G]	1.77
